Results of several laboratories.
Every numbered part comes from another study and shows a few of its results, in no order.

Sample 1 — method: RNA Bind-n-Seq; molecule type: RNA; medium: in vitro; concentration: 1 µM; notes: whole 134-nt RNA, ends assumed; with: 150 mM KCl; baseline: input library; reading: higher = stronger binding
Target: Ras GTPase-activating protein-binding protein 1, RRM domain (G3BP1, Homo sapiens, UniProt Q13283)
Sequence of UniProt Q13283 (whole entry, looked up): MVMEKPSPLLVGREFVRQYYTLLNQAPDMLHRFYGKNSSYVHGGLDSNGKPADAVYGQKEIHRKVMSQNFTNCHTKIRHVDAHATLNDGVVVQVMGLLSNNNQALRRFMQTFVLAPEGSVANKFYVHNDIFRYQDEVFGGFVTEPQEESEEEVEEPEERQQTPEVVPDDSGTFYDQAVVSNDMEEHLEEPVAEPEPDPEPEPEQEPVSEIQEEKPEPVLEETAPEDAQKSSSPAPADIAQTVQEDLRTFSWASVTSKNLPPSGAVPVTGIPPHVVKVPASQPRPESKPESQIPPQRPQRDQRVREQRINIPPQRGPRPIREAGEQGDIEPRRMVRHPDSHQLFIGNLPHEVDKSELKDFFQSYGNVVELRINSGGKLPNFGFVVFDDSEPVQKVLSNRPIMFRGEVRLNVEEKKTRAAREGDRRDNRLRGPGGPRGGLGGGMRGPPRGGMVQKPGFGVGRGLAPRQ
Oligonucleotide	log2 enrichment
GGGAGUUCUACAGUCCGACGAUCUCCUCAAGUCCUGUGCUACACAUCGUAUGUACCGAAUCGGGGCGGGCGGCGGAAAGUAUUAUGUUACGCCGUUCGGAUCUGCACUUCCAGUGGAAUUCUCGGGUGUCAAGG	-0.281
GGGAGUUCUACAGUCCGACGAUCUGGCCCUGGUGGCAUGCGGGGAGGAAGAGGUGGCCUCAUGGAUCGUGGUGGUCCCGGUGGAAUGUUCAGCGGUGGCCGUGGUGGAGACAGUGGAAUUCUCGGGUGUCAAGG	1.39
GGGAGUUCUACAGUCCGACGAUCUGAUGAUAGUAGCAGAGAAGAUGAACAUACACAUACUAACAGUGUCACGAACUCCAGUAGUAUUGUGGACCUGCCCGUUCACCAACUCUCUGGAAUUCUCGGGUGUCAAGG	0.049
GGGAGUUCUACAGUCCGACGAUCGUCCUGUGCUACACAUCGUAUGUACCGAAUCGGAAAAAAGGAAAAAAGGAAAAAAGGGGAAAGUAUUAUGUUACGCCGUUCGGAUCUGCAUGGAAUUCUCGGGUGUCAAGG	0.114

Sample 2 — method: RNA Bind-n-Seq; molecule type: RNA; medium: in vitro; concentration: 365 nM; baseline: no-protein control; reading: higher = stronger binding
Target: RNA binding protein fox-1 homolog 2, RRM domain, GST-SBP tag (RBFOX2, Homo sapiens, UniProt O43251-10, residues 100-194)
Notes: natural RNA segment, single round, ends assumed
All sequences stand within: GGGAGUUCUACAGUCCGACGAUC … UGGAAUUCUCGGGUGCCAA
Residues (chain): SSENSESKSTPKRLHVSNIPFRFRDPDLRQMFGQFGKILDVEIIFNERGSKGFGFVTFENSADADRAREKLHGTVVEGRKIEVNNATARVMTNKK
Oligonucleotide	RBNS enrichment (R)
AAAACGGCAGCACCUCACGGCUGUCUUUCUAGGAUCCUCCAUUAUUCCUUAGAAGCAAGGACCUGGUCCAGUGGCGGUGCCUCAGUUCACACUCCCUCUGACGGACGGAC	0.31
AGCAGACAUGGUGACCUGGUGGGAGACUUUAUUUAUCCAGUGUGGUGAUAGCAUGACCCUCCAUGCUUCUUACUGGUUAAUGCUAUUUCUCACAAUGAUGCAGAUUAGGA	0.435
UAUGUGUUUAUCAAAUUUUGACAGGUUUUGAAUGUUCUGUCUAUACCCUAUUUUUAAGAAGUAGGUAUCAGGUACAGCCAGUGUUUUCAUUGUCUGAUUAAAACAGUUUA	0.789
CAUGCUGGCUAGAAGUUGGCCACAACUUGAGCAAAACUGCCUCUCACACAGUGAGAUGCACUCAAAGGACCACGUGUUAUCUGGUAAUCCAAAUUGGUUCCCCUGCUCCC	0.214
AGGGGAGAGAAGGCCUCAUCUCUCUAUAUUUAUACAUAACCCCGGGGAAGACACAGAGACUCGUACCUGCGCUGUUUGUGCCGCCGCUGCCUCUGGGCCCUCCCAGCACA	0.403

Sample 3 — method: protein binding microarray; molecule type: double-stranded DNA, one strand shown; medium: in vitro; concentration: not given; baseline: not given; reading: higher = stronger binding
Target: Histone acetyltransferase KAT6A, both winged helices, GST fusion (KAT6A, Homo sapiens, UniProt Q92794, residues 1-181)
Notes: 8-mer, flanks averaged, mean of 2 arrays, mostly near background
Residues (chain): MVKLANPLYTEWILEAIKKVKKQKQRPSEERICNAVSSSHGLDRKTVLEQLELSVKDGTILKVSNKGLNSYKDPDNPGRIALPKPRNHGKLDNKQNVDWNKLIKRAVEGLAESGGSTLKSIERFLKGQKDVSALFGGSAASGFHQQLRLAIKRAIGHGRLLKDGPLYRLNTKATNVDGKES
Oligonucleotide	E-score
ACACCATC	-0.169
CTCCAAAG	-0.119
TAGGACAA	-0.209
AGCATGTA	-0.117
GGAGGTTA	-0.0801
ACTTCTTC	-0.237

Further values, each from its own experiment
Molecule	target	assay	test system	setting	scale	endpoint	result
PhoQ, residues 284 288 289 292 302 303 SSCCRF	PhoP, residues 12 14 15 18 19 IFFTR (Escherichia coli, UniProt P23836)	Sort-seq, measured: YFP reporter	E. coli	PhoQ-PhoP variant library, with: 10 µM Mg2+	baseline: high Mg2+ state, higher = stronger signaling	fold induction	2.82

For quick reference, copied from above (sample 3):
Oligonucleotide	E-score
ACACCATC	-0.169
